Results gathered from unrelated publications.
CDK18 with cyclin Y: Cyclin-dependent kinase 18, with cyclin Y (CDK18, Homo sapiens, UniProt Q07002)
CDK18: Cyclin-dependent kinase 18 (CDK18, Homo sapiens, UniProt Q07002)

`O=C(Cc1ccc(OCc2ccccc2)cc1)NC1(C(=O)O)CCN(C(=O)c2ccc(-c3cccc(Cl)c3)cc2)CC1` — result for “activity vs control”: 104% (CDK18 with cyclin Y; enzyme activity, inhibitor; 10 µM).
With `CCN1CCN(Cc2ccc(C(=O)Nc3ccc(C)c(NCc4cnc5[nH]ccc5c4OC)c3)cc2C(F)(F)F)CC1` the remaining binding was 100% (CDK18; binding, competition with immobilised ligand; 1 µM).
With `C=CC(=O)N1CCCC(n2c(=O)c3ncccc3n(Cc3ccc(Oc4ccccc4)cc3)c2=O)C1` (stereo not drawn) the remaining binding was 90% (CDK18; cell-free assay, competition with immobilised ligand; 1 µM).
For `CC(C)=CC1OC(C)(C)C2C=C3C(=O)C(Cl)=CC(O)C3C3C(O)C4OC4C(=O)C132` (stereo not drawn), the remaining binding was 95% (CDK18; cell-free assay, competition with immobilised ligand; 10 µM).
With `CN1CCN(Cc2ccc(-c3ccc(CO[C@H]4CCC[C@@H]4NC(=O)c4cc(-c5cnn(C)c5)cnc4N)cc3)cc2)CC1` the inhibition was 6% (CDK18 with cyclin Y; enzyme activity, inhibitor; 0.1 µM).
`CNC(=O)C[C@H](Cc1ccc(C#N)cc1)NC(=O)c1cc(-c2ccc(CN[C@H](C)c3ccc(C)cc3)o2)ccc1Cl` — result for “activity vs control”: 108% (CDK18 with cyclin Y; enzyme activity, inhibitor; 1 µM).
`Nc1ncc2c(n1)-c1c([nH]c3ccc(C4=CCOCC4)cc13)CCC2` gave a remaining binding of 100% (CDK18; binding, competition with immobilised ligand; 1 µM).
For `C=CC(=O)N1CCc2ccc(-n3c(=O)ccc4cnc5ccc(-c6cnn(C)c6)cc5c43)cc21`, the remaining binding was 98% (CDK18; KINOMEscan; 1 µM; reference: DMSO control).
The remaining binding of `CNC(=O)C1CCN(c2cc(C)c(F)cc2NC(=O)c2ccc(-c3cc(O)ccc3C)c(C)c2)CC1` is reported as 100% (CDK18; binding, competition with immobilised ligand; 1 µM).
With `CNC1C[S+]2CC[S+]3CC[S+](C1)[Ru-4]321([N]=C=S)[n]2c3ccc(OC)cc3c3c4c(c5cc(F)c[n+]1c5c32)C(=O)NC4=O` (stereo not drawn) the remaining binding was 93% (CDK18; KinomeScan; 0.1 µM; reference: untreated).
`CCn1cc(C(=O)O)c(=O)c2c(N)c(F)c(NC3CCCCC3)cc21` gave an inhibition of 52.1% (CDK18 with cyclin Y; kinase activity; 0.1 µM, together with: ATP at Km).
`CN1CC[C@@H](COc2cnc(C#N)cc2-c2ccn3nc(NC(=O)C4CC4)cc3c2)C1` gave an inhibition of 7% (CDK18 with cyclin Y; enzyme activity, inhibitor; 1 µM).
`COc1ccc(O)cc1-c1c[nH]c2ncc(-c3cncc(C(=O)N(C)C)c3)cc12` gave an inhibition of 0.4% (CDK18 with cyclin Y; binding, competition with immobilised ligand; 0.2 µM).
`COc1cc(Nc2nc(C)cc(-c3cnn4nc(OC)ccc34)n2)cc(C(F)(F)F)c1` has a remaining activity of 87% (CDK18; inhibitor; 1 µM; reference: control).
`C=CC(=O)N1Cc2nc(-c3cc(-c4cc(Cl)cnc4Cl)c(F)cc3F)n(-c3ccncn3)c2C1` gave an inhibition of 4% (CDK18 with cyclin Y; cell-free assay, inhibitor; 1 µM).
`COc1cc(Nc2nccc(-c3cnn4nc(OC)ccc34)n2)cc(C(F)(F)F)c1` gave a remaining binding of 87% (CDK18; binding, competition with immobilised ligand; 1 µM).
For `COc1c(Cl)cccc1Nc1c(-c2ccncc2C#C[C@@]2(C)CCCN2C(=O)/C=C/CN(C)C)[nH]c2c1C(=O)NCC2`, the remaining binding was 99% (CDK18; cell-free assay, competition with immobilised ligand; 3 µM).
For `Cc1ccc(-c2c(/C=C(\C#N)C(=O)NC(C)C)n(CCCO)c3ncnc(N)c23)cc1`, the remaining binding was 92% (CDK18; cell-free assay, competition with immobilised ligand; 1 µM).
For `Cc1cnc2nc1Nc1cccc(c1)COC/C=C/COCc1cc(ccc1OCCN1CCOCC1)N2`, the remaining binding was 97% (CDK18; binding; 0.1 µM).
`Nc1ncc(-c2cc(-c3cnn(CC(F)(F)F)c3)ncc2F)nc1C(=O)NC1CNCC(F)C1` (stereo not drawn) gave a remaining activity of 88.7% (CDK18 with cyclin Y; enzyme activity; 1 µM; reference: DMSO control).
For `COc1ccc(C(=O)/C=C/c2ccccc2-c2c[nH]c3ccc(C#N)cc23)c(O)c1`, the inhibition was 11% (CDK18 with cyclin Y; enzyme activity, inhibitor; 20 µM).

A few entries again:
`CCn1cc(C(=O)O)c(=O)c2c(N)c(F)c(NC3CCCCC3)cc21` gave an inhibition of 52.1% (CDK18 with cyclin Y; kinase activity; 0.1 µM, together with: ATP at Km).
`CN1CC[C@@H](COc2cnc(C#N)cc2-c2ccn3nc(NC(=O)C4CC4)cc3c2)C1` gave an inhibition of 7% (CDK18 with cyclin Y; enzyme activity, inhibitor; 1 µM).
